Assay results collected from several papers.
Each line is one published result; not all experiments were run side by side. Several values in a cell are separate wells, animals, samples, runs or records.
Target: Inhibitor of nuclear factor kappa-B kinase subunit epsilon (IKBKE, Homo sapiens, UniProt Q14164)

Nc1ncc(-c2cc(-c3cnn(CC(F)(F)F)c3)ncc2F)nc1C(=O)NC1CNCC(F)C1 (stereo not drawn) gave a remaining activity of 94.5% (enzyme activity; 1 µM; relative to: DMSO control).
CN1CCN(Cc2ccc(-c3ccc(CO[C@H]4CCC[C@@H]4NC(=O)c4cc(-c5cnn(C)c5)cnc4N)cc3)cc2)CC1 has an inhibition of 11% (enzyme activity, inhibitor; 0.1 µM).
C=CC(=O)Nc1cccc(-c2cnc3[nH]cc(C(=O)NC(C)(C)C)c3n2)c1 has an inhibition of 11% and 13% (kinase activity; 0.1 µM).
COc1cc(Nc2nccc(-c3cnn4nc(OC)ccc34)n2)cc(C(F)(F)F)c1 gave a remaining binding of 65% (binding, competition with immobilised ligand; 1 µM).
NC(=O)[C@@H](O)C[C@H]1CCc2sc3ncnc(O[C@H]4CC[C@H](N5CCOCC5)CC4)c3c21 has an inhibition of -1% (enzyme activity, inhibitor; 10 µM).
C=CC(=O)N1CCCC(n2c(=O)c3ncccc3n(Cc3ccc(Oc4ccccc4)cc3)c2=O)C1 (stereo not drawn) has a remaining binding of 99% (binding, competition with immobilised ligand; 1 µM).
Cc1cccc(-c2ccc3nc(NC(=O)C4CCOCC4)nn3c2)c1 gave a remaining activity of 108% (enzyme activity, Dundee kinase panel; 10 µM).
Cc1cccc(O[C@H]2CCC[C@@H](C(C)CNCc3ccncc3)C2)c1 (relative stereo) gave an inhibition of 16% (enzyme activity, inhibitor; 10 µM).
For Cc1ccc(-c2c(/C=C(\C#N)C(=O)NC(C)C)n(CCCO)c3ncnc(N)c23)cc1, the remaining binding was 100% (binding, competition with immobilised ligand; 1 µM).
The remaining binding of COc1c(Cl)cccc1Nc1c(-c2ccncc2C#C[C@@]2(C)CCCN2C(=O)/C=C/CN(C)C)[nH]c2c1C(=O)NCC2 is reported as 85% (binding, competition with immobilised ligand; 3 µM).
For C=CC(=O)N1CCc2ccc(-n3c(=O)ccc4cnc5ccc(-c6cnn(C)c6)cc5c43)cc21, the remaining binding was 100% (KINOMEscan; 1 µM; relative to: DMSO control).
CCn1cc(C(=O)O)c(=O)c2c(N)c(F)c(NC3CCCCC3)cc21 gave an inhibition of -4.4% (kinase activity; 0.1 µM, added: ATP at Km).
CN1CC[C@@H](COc2cnc(C#N)cc2-c2ccn3nc(NC(=O)C4CC4)cc3c2)C1 gave an inhibition of 8% (enzyme activity, inhibitor; 1 µM).
With Cc1ccc(C)c(-c2ccc3nc(NC(=O)C4CCCCC4)nn3c2)c1 the remaining activity was 104% (enzyme activity, Dundee kinase panel; 10 µM).
CNC(=O)C1CCN(c2cc(C)c(F)cc2NC(=O)c2ccc(-c3cc(O)ccc3C)c(C)c2)CC1 has a remaining binding of 84% (binding, competition with immobilised ligand; 1 µM).
